{"data": "Measurements collected from several papers", "note": "A part holds a random share of what one study measured."}
{"data": "Block 1", "target": "RING finger protein unkempt homolog, zinc fingers 1-6, SBP tag (UNK, Homo sapiens, UniProt Q9C0B0, residues 30-357)", "technique": "RNA Bind-n-Seq", "molecule type": "RNA", "sample": "in vitro", "concentration": "100 nM", "notes": "RNA with constant flanks, vertebrate orthologous sites, ends assumed", "baseline": "input RNA pool", "reading": "higher = stronger binding", "all sequences stand within": "GGGAGUUCUACAGUCCGACGAUC … CAACAGAGGAUUGAGCAUCA", "sequence of UniProt Q9C0B0 (30-357, looked up)": "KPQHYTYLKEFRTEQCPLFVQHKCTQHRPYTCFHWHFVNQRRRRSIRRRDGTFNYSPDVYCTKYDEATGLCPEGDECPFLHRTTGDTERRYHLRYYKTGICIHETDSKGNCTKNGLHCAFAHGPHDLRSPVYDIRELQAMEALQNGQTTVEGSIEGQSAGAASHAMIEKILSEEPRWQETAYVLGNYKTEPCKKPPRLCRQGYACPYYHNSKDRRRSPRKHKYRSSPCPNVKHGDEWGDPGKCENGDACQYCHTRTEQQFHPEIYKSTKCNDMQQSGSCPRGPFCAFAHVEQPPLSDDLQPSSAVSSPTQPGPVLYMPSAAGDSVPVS"}
{"Sequence": "UGGGUGACUUUGGACGUCCGCUCAGCCAGGUUGCAGAAGCGGUUUAGUGUGUGUCCUAAUCUUCUCUCUCUGUAGGUAGGCCUGUGCCGCAAACAUGCUCCGCCAGAUCCUCGGGCAAGC", "bound/input enrichment": "0.401 ratio"}
{"Sequence": "UUGGAACCAGUUCUCCAAAUAGAAAUGGUACUAAAAAAAAUAAGCAAAAUGAUAUUUGUGUGGAAAAAACAGAAGUUAAAUCAUGUAAAGCAAAUACUGUGAAUAUUCCAGGCCCUAAAG", "bound/input enrichment": "0.316 ratio"}
{"Sequence": "GAAACUCCCCAUUGUCACUGAGAACCACCAAAUCUGACUUUUACAUUUGGUCUCAGAAUUUAGGUUCCUGCCCUGUUGGUUUUUUUUUUUUUUUUAAACAGUUUUCAAAAGUUCUUAAAG", "bound/input enrichment": "0.873 ratio"}
{"Sequence": "AAAAUAGGUUCUGCUCCAUUAAGAGAGUAAAACUAGUCCCUCAAAUAUAAAACUCCUAAAUAGCUAUUUUUAAAAUAAUAUUUAAAUUUUAUAAAGCACCUAAUGCCACACCACAACUGU", "bound/input enrichment": "1.17 ratio"}
{"Sequence": "AUGUAAGUAGAAAACAAUUUUCAUUCAUCUUCCCAUUGUGAAAUUCUCUAGCACUGUAUUUAGAAUCUGGAUUUUUAUAAUUCAUGCUUAAUGUAUUAGACAUUUUUAGCCCAUAAUUAA", "bound/input enrichment": "1.37 ratio"}
{"Sequence": "UAAGAAUUGGAAGAAUUGUAUAGGAGGCAGAAGUCAAAAAGUAGAAGCAGUUUGGAAGAGUAGUUACAAAUAUCAAGAGCCAGGUGGCUAAAAGAUGGAGCUAUAGGUCAUGGAAGCUCA", "bound/input enrichment": "0.858 ratio"}
{"Sequence": "CCAACCUCUACAGUGUCCCUCGUACAGGGACAUAUUUCAUACCAUCCCGAGGACCUGCACUUAAAACGUUUUUUUAAUUGUUAUACGGGAAGAUAUGUGUCUUUAAAACACCAUCUCGAA", "bound/input enrichment": "0.284 ratio"}
{"Sequence": "UUUGUGGAGGGAGAAAGACAAGUUUCUUCUCUCUUUCAAGUAAAACUGAAAUAAUUUUCUUUUAUUUCUGUCUUGGAAAACAAAGAUGGCCUAUUCUCUUAACUGUGCUACAAUACCAUC", "bound/input enrichment": "0.251 ratio"}
{"data": "Block 2", "target": "RNA binding protein fox-1 homolog 2, RRM domain, GST-SBP tag (RBFOX2, Homo sapiens, UniProt O43251-10, residues 100-194)", "technique": "RNA Bind-n-Seq", "molecule type": "RNA", "sample": "in vitro", "concentration": "365 nM", "notes": "natural RNA segment, single round, ends assumed", "baseline": "no-protein control", "reading": "higher = stronger binding", "all sequences stand within": "GGGAGUUCUACAGUCCGACGAUC … UGGAAUUCUCGGGUGCCAA", "Target sequence (chain)": "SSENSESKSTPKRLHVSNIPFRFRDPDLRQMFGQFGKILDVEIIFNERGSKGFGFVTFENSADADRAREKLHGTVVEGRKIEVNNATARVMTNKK"}
{"Sequence": "CAUUUUCAUGGAAUUAAUUUACACGUAAUGAGGGAAGUCCUAGGAUGGAUAGAAAAAAAGCACUUACAUUGGGGCACACAGGAAAUCCCAGUGUCUAGCAAUGGUUUGGU", "RBNS enrichment (R)": 0.83}
{"Sequence": "UCAAAGCUCUUUUAAUGUAAUGGACAAAAAUAAGAUAUGAGAAUAUUAUUGAUGAAUUUUCAUAAGGUGGAAUUGAUCUUAAUCUACUAACAGAGAAGGGUAGACAGUUU", "RBNS enrichment (R)": 0.973}
{"Sequence": "UGUCUGGGUCAUUCAGGCAGUACAUCUGAAUUAAGCUGAAUGUAGACAAAUAAAGAAAAACAAAACUGCGCCCGUCUUAGGCCUGGGUGUCUGACCCACCAGCAGUGCAA", "RBNS enrichment (R)": 0.382}
{"Sequence": "AGUGGAGGGAACUCAGUGGAGGAUGUGCCCAGCAGUGGCCGGGGCUGCUUCUGUAACCAAGGUCUGGCAGAGUAGCGAUUCCCUGCGUGUUCAGGAAGGGCCCAUUGUGU", "RBNS enrichment (R)": 0.717}
{"Sequence": "UUAGAUUAUAUAUUCCGCACUCAAGGAGUAACCAGGUCGUCCAAGCAAAAACAAAUGGGAAAAUGUCUUAAAAAAUCCUGGGUGGACUUUUGAAAAGCUUUUUUUUUUUU", "RBNS enrichment (R)": 0.738}
{"Sequence": "AAAUGAUCCACACUUUCACACUGCCACUUCUGACCUUCACUGCCAUCUUCAGACGGUUCCUUUUGAUCAGCCCCUGGAAGAUGGGUCCCUCCUAAUCUAUGUCAUAGAAU", "RBNS enrichment (R)": 0.321}
{"Sequence": "GGGUAGGCAGUGGGGAGUGAGGCCCAAGGGUAGGGUCUGGAUCUCAGAGUAAACUGCCUUGUCUUCCUCAGGUUUUGGAGCCCUGUGAGUUCAAUAAACCUUUUAUGUGG", "RBNS enrichment (R)": 0.466}
{"Sequence": "GUAAUUUCAUGGUGGCCUAGUGUUGUGGUGCUUCUGGUAAUGGUAAUAGAAGCUCAACUAUUUUUUUGUGGAUUUCAGUUUUUAUCAUCAGAAGUCCUAGACAGUGACAU", "RBNS enrichment (R)": 0.329}
{"data": "Block 3", "target": "Sal-like protein 4, full length isoform B (SALL4, Homo sapiens, UniProt Q9UJQ4-2, residues 1-616)", "technique": "universal PBM", "molecule type": "double-stranded DNA, one strand shown", "sample": "in vitro", "concentration": "not given", "notes": "8-mer, flanks averaged, mean of replicates", "reading": "higher = stronger binding", "Construct (chain)": "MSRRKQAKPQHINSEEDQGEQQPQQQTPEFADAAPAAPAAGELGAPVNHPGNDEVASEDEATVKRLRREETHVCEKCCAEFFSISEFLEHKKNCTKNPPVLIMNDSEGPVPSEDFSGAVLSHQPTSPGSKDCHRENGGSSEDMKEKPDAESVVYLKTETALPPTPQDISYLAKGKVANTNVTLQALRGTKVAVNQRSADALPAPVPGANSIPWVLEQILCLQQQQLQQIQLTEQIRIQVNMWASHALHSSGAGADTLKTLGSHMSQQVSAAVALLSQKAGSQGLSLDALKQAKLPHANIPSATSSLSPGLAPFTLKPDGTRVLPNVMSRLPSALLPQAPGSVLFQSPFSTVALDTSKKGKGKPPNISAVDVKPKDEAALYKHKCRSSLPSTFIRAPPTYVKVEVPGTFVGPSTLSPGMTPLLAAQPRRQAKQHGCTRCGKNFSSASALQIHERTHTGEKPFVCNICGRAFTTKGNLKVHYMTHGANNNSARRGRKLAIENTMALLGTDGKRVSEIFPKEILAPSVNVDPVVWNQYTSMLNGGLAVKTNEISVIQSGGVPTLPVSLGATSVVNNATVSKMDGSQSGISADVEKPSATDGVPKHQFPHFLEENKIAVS"}
{"Sequence": "CACGGATC", "E-score": -0.216}
{"Sequence": "GGGGACAC", "E-score": -0.238}
{"Sequence": "AGTAGGTG", "E-score": 0.0888}
{"Sequence": "CGGTAATC", "E-score": -0.0705}
{"Sequence": "ATAGGTAG", "E-score": 0.164}
{"Sequence": "AGTTTTAG", "E-score": 0.0209}
{"Sequence": "CATAGTGC", "E-score": 0.148}
{"Sequence": "GAGAACGA", "E-score": -0.0959}
{"Sequence": "ATAGAAGA", "E-score": 0.214}
{"Sequence": "CAGTCTTC", "E-score": -0.242}
{"Sequence": "CCTCCCTA", "E-score": -0.24}
{"Sequence": "GAGTACTC", "E-score": -0.0977}
{"Sequence": "AACCCTAG", "E-score": 0.039}
{"Sequence": "AAGAAGCT", "E-score": 0.162}
{"Sequence": "AAGGCAGT", "E-score": 0.0555}
{"Sequence": "GAAGGTGC", "E-score": -0.234}
{"Sequence": "AGGCCAAA", "E-score": -0.0617}
{"Sequence": "AGGCCCTG", "E-score": -0.279}
{"Sequence": "CGATCGTC", "E-score": -0.204}
{"Sequence": "ACGTGAAA", "E-score": 0.247}
{"Sequence": "ACTGGATG", "E-score": -0.117}
{"Sequence": "TCTGAGCA", "E-score": -0.0431}
{"Sequence": "GGATGCAA", "E-score": 0.0871}
{"Sequence": "CCACCCAC", "E-score": -0.0688}
{"Sequence": "CACGGCGC", "E-score": -0.186}
{"data": "Block 4", "target": "Interferon regulatory factor 5, full length, phosphomimetic (IRF5, Homo sapiens, UniProt Q13568-2, residues 1-514, S451D/S453D/S456D/S462D)", "technique": "protein-binding microarray", "molecule type": "double-stranded DNA, one strand shown", "sample": "in vitro", "concentration": "940 nM top", "notes": "60-bp whole probe", "together with": "salmon DNA 0.4 mg/ml", "baseline": "random background probes", "reading": "higher = stronger binding", "all sequences stand within": "GCCTAGCAC … GTCTTGATTCGCTTGACGCTGCTG"}
{"Sequence": "TCATACATTTATATCTTACTGTGCTAG", "fitted relative affinity": "0.779 z-score"}
{"Sequence": "GACGATTTCGGTTCCGGGACGTGCTAG", "fitted relative affinity": "2.13 z-score"}
{"Sequence": "GACGGTATCCTTTTCGTGACGTGCTAG", "fitted relative affinity": "0.663 z-score"}
{"Sequence": "TCATTCATGAAATTTTAAACTGTGCTA", "fitted relative affinity": "0.243 z-score"}
{"Sequence": "GACGATATCGGTTTCGGGACGTGCTAG", "fitted relative affinity": "4.28 z-score"}
{"Sequence": "GACGGTTACGGTCTCGGGACGTGCTAG", "fitted relative affinity": "0.592 z-score"}
{"Sequence": "ACTGTGTTTTGGATGTCAGAGTGCTAG", "fitted relative affinity": "0.141 z-score"}
{"Sequence": "TCAAATATGAGACTGGGACTGTGCTAG", "fitted relative affinity": "-0.253 z-score"}
{"Sequence": "CTAGTTCTGCTTTGCCTTCAGTGCTAG", "fitted relative affinity": "0.516 z-score"}
{"Sequence": "TTAGGTATCGGTCTCGCTTAGTGCTAG", "fitted relative affinity": "9.93 z-score"}
{"Sequence": "GACGGCATCGACACTGGGGACGTGCTA", "fitted relative affinity": "-0.224 z-score"}
{"Sequence": "GACGGTTTCGACTTTCGGTACGTGCTA", "fitted relative affinity": "8.03 z-score"}
{"Sequence": "GTCATTTACATTTTAGTAGTGTGCTAG", "fitted relative affinity": "0.322 z-score"}
{"Sequence": "TTAGATCTCAGACTCGATTAGTGCTAG", "fitted relative affinity": "-0.258 z-score"}
{"Sequence": "CACGATATCAGTATCGAGACGTGCTAG", "fitted relative affinity": "1.71 z-score"}
{"Sequence": "TTAGGTTCCGGTTTCGGTGAGTGCTAG", "fitted relative affinity": "7.87 z-score"}
{"Sequence": "TTAAGAATGTTTTTCATTGTGTGCTAG", "fitted relative affinity": "-0.193 z-score"}
{"Sequence": "GCTGGGTTTTCTTGGCACAGGTGCTAG", "fitted relative affinity": "-0.0495 z-score"}
{"Sequence": "TCATGTCTGGGCTTTTTCACTGTGCTA", "fitted relative affinity": "-0.34 z-score"}
{"note": "Some of these lines once more (block 1):"}
{"Sequence": "UGGGUGACUUUGGACGUCCGCUCAGCCAGGUUGCAGAAGCGGUUUAGUGUGUGUCCUAAUCUUCUCUCUCUGUAGGUAGGCCUGUGCCGCAAACAUGCUCCGCCAGAUCCUCGGGCAAGC", "bound/input enrichment": "0.401 ratio"}
{"Sequence": "UUUGUGGAGGGAGAAAGACAAGUUUCUUCUCUCUUUCAAGUAAAACUGAAAUAAUUUUCUUUUAUUUCUGUCUUGGAAAACAAAGAUGGCCUAUUCUCUUAACUGUGCUACAAUACCAUC", "bound/input enrichment": "0.251 ratio"}
{"Sequence": "CCAACCUCUACAGUGUCCCUCGUACAGGGACAUAUUUCAUACCAUCCCGAGGACCUGCACUUAAAACGUUUUUUUAAUUGUUAUACGGGAAGAUAUGUGUCUUUAAAACACCAUCUCGAA", "bound/input enrichment": "0.284 ratio"}
